Published values collected from several papers.
Lines come from different studies, so protocols differ. ± marks the error that the study gave.

CCCCCCCCCC(=O)NCCCC[C@H](NC(=O)[C@H](CC(C)C)NC(=O)[C@H](CCCCN)NC(=O)[C@H](CCCCNC(=O)[C@H](CC(C)C)NC(=O)[C@H](CCN)NC(=O)[C@H](CCCCNC(=O)[C@H](Cc1ccccc1)NC(=O)[C@@H](N)CCCN)NC(=O)[C@H](Cc1ccccc1)NC(=O)[C@@H](N)CCCN)NC(=O)[C@H](CC(C)C)NC(=O)[C@H](CCN)NC(=O)[C@H](CCCCNC(=O)[C@H](Cc1ccccc1)NC(=O)[C@@H](N)CCCN)NC(=O)[C@H](Cc1ccccc1)NC(=O)[C@@H](N)CCCN)C(N)=O  leakage (carboxyfluorescein release; EYPC vesicles; 10 µg/mL, 250 s, pH 7.4, 25 °C; baseline: Triton X-100): 1%
CCCCC1NC(=O)c2ccccc21 (racemic)  black tail length (thrombosis; mouse, carrageenan-induced thrombosis; oral, 50 mg/kg daily for 2 days, 48 h after carrageenan): 3.4 ± 0.5 cm
CCCC[C@H](NC(=O)[C@@H](NC(=O)[C@H](CC(=O)O)NC(=O)[C@H](CCC(N)=O)NC(=O)[C@H](CC(C)C)NC(=O)[C@H](CC(C)C)NC(=O)[C@H](CCCN)NC(=O)[C@H](CCCNC(=N)N)NC(=O)[C@H](C)NC(=O)[C@H](CO)NC(=O)[C@H](CC(C)C)NC(=O)[C@H](CCC(N)=O)NC(=O)[C@H](CC)NC(=O)[C@H](CC(C)C)NC(=O)[C@@H](NC(=O)[C@H](CCCN)NC(=O)[C@H](CCCNC(=N)N)NC(=O)[C@H](Cc1ccc(O)cc1)NC(=O)[C@H](CO)NC(=O)[C@@H](NC(=O)[C@@H](NC(=O)[C@H](Cc1ccccc1)NC(=O)[C@@H](NC(=O)[C@H](C)NC(=O)[C@H](CC(=O)O)NC(=O)[C@@H](C)NC(=O)[C@H](Cc1ccc(O)cc1)NC)[C@@H](C)CC)[C@@H](C)O)[C@@H](C)O)C(C)C)[C@@H](C)CC)C(=O)N[C@@H](CC(=O)O)C(=O)N[C@@H](CCCNC(=N)N)C(=O)NC  relative potency (GH release; male rat, serum; subcutaneous, dose not given, 15 min; baseline: GHRH(1-29)NH2): 102
Cc1ccc([C@@H]2O[C@H](CO)[C@@H](O)[C@H](O)[C@H]2O)cc1Cc1ccc(-c2ccc(F)cc2)s1  serum ALT activity (rabbit, STZ-nicotinamide type 2 diabetes, serum; dose not given, 28 days): 84.2 ± 2.02 U/L
O=C1c2c(cc(O)c(-c3ccc(O)c(O)c3)c2O)OC1Cc1ccc(O)c(O)c1 (stereo not shown)  EC50 (ABTS scavenging, absorbance): 1100 µM
CNC(=O)N(C)c1ccc(C(=O)Nc2ccc(F)cc2C(=O)Nc2ccc(Cl)cn2)cc1  concentration doubling prothrombin time (human plasma): 10 ± 2 µM
CCCCCCCCCCCCCCCC(=O)NCCCC[C@H](NC(=O)[C@H](CCC(=O)O)NC(=O)[C@H](Cc1ccc(O)cc1)NC(=O)[C@H](CCC(=O)O)NC(=O)COCC(=O)NCCCOCCOCCOCCCNC(=O)[C@H](Cc1ccccc1)NC(=O)[C@H](CC(N)=O)NC(=O)[C@H](Cc1c[nH]cn1)NC(=O)[C@@H](NC(=O)[C@H](CC(=O)O)NC(=O)[C@H](CCC(N)=O)NC(=O)[C@H](CC(C)C)NC(=O)[C@H](CCCCN)NC(=O)[C@H](CCCCN)NC(=O)[C@H](CCCNC(=N)N)NC(=O)[C@H](CC(C)C)NC(=O)[C@H](Cc1c[nH]c2ccccc12)NC(=O)[C@H](CCC(=O)O)NC(=O)[C@@H](NC(=O)[C@H](CCCNC(=N)N)NC(=O)[C@H](CCC(=O)O)NC(=O)[C@H](CCSC)NC(=O)[C@H](CO)NC(=O)[C@H](CC(N)=O)NC(=O)[C@H](CC(C)C)NC(=O)[C@H](Cc1c[nH]cn1)NC(=O)[C@H](CCCCN)NC(=O)CNC(=O)[C@H](CC(C)C)NC(=O)[C@H](CC(N)=O)NC(=O)[C@H](Cc1c[nH]cn1)NC(=O)[C@H](CCSC)NC(=O)[C@H](CC(C)C)NC(=O)[C@H](CCC(N)=O)NC(=O)[C@@H](NC(=O)[C@H](CCC(=O)O)NC(=O)[C@H](CO)NC(=O)[C@@H](NC(=O)[C@@H](N)CO)C(C)C)[C@@H](C)CC)C(C)C)C(C)C)C(=O)N[C@@H](CCC(=O)O)C(=O)N[C@@H](Cc1ccc(O)cc1)C(=O)N[C@@H](CCC(=O)O)C(N)=O  duration of phosphate decrease (CD-1 mice, plasma; sc, 10 nmol/kg): ≥ 6 h
CC(C)(CCCC/C=C/CCCCCC(C)(C)C(=O)O)C(=O)O  TG AUC(0-4 h) decrease (VLDL-TG secretion; C57BL/6J mice; 100 mg/kg, together with: tyloxapol 600 mg/kg): 75.8%
CCCC[C@H](NC(=O)[C@@H](NC(=O)[C@H](CC(=O)O)NC(=O)[C@H](CCC(N)=O)NC(=O)[C@H](CC(C)C)NC(=O)[C@H](CC(C)C)NC(=O)[C@H](CCCN)NC(=O)[C@H](CCCNC(=N)N)NC(=O)[C@H](C)NC(=O)[C@H](CO)NC(=O)[C@H](CC(C)C)NC(=O)[C@H](CCC(N)=O)NC(=O)[C@H](CC)NC(=O)[C@H](CC(C)C)NC(=O)[C@@H](NC(=O)[C@H](CCCN)NC(=O)[C@H](CCCNC(=N)N)NC(=O)[C@H](Cc1ccc(O)cc1)NC(=O)[C@H](CO)NC(=O)[C@H](CC(N)=O)NC(=O)[C@@H](NC(=O)[C@H](Cc1ccccc1)NC(=O)[C@@H](NC(=O)[C@H](C)NC(=O)[C@H](CC(=O)O)NC(=O)[C@@H](CC)NC(=O)CCc1ccc(O)cc1)[C@@H](C)CC)[C@@H](C)O)C(C)C)[C@@H](C)CC)C(=O)N[C@@H](CO)C(=O)N[C@@H](CCCNC(=N)N)C(=O)NCCCC(N)=O  relative potency (GH release; rat, male, serum; intravenous, 1 µg/kg, 5 min; baseline: reference GHRH agonist JI-38): 1.55
CSCC[C@H](NC(=O)[C@H](CO)NC(=O)[C@@H](N)CO)C(=O)N[C@@H](CCCCN)C(=O)N[C@@H](CC(C)C)C(=O)N[C@@H](CO)C(=O)N[C@@H](Cc1ccccc1)C(=O)N[C@@H](CCCNC(=N)N)C(=O)N[C@@H](C)C(=O)N[C@@H](CCCNC(=N)N)C(=O)N[C@@H](C)C(=O)N[C@@H](Cc1ccc(O)cc1)C(=O)NCC(=O)N[C@@H](Cc1ccccc1)C(=O)N[C@@H](CCCNC(=N)N)C(=O)NCC(=O)N1CCC[C@H]1C(=O)NCC(=O)N1CCC[C@H]1C(=O)N[C@@H](CCC(N)=O)C(=O)N[C@@H](CC(C)C)C(=O)O  ED50 (liver glycogen increase; wild-type mouse, normal chow, liver): ~13 ng/g body weight

Repeated from above:
CCCC[C@H](NC(=O)[C@@H](NC(=O)[C@H](CC(=O)O)NC(=O)[C@H](CCC(N)=O)NC(=O)[C@H](CC(C)C)NC(=O)[C@H](CC(C)C)NC(=O)[C@H](CCCN)NC(=O)[C@H](CCCNC(=N)N)NC(=O)[C@H](C)NC(=O)[C@H](CO)NC(=O)[C@H](CC(C)C)NC(=O)[C@H](CCC(N)=O)NC(=O)[C@H](CC)NC(=O)[C@H](CC(C)C)NC(=O)[C@@H](NC(=O)[C@H](CCCN)NC(=O)[C@H](CCCNC(=N)N)NC(=O)[C@H](Cc1ccc(O)cc1)NC(=O)[C@H](CO)NC(=O)[C@@H](NC(=O)[C@@H](NC(=O)[C@H](Cc1ccccc1)NC(=O)[C@@H](NC(=O)[C@H](C)NC(=O)[C@H](CC(=O)O)NC(=O)[C@@H](C)NC(=O)[C@H](Cc1ccc(O)cc1)NC)[C@@H](C)CC)[C@@H](C)O)[C@@H](C)O)C(C)C)[C@@H](C)CC)C(=O)N[C@@H](CC(=O)O)C(=O)N[C@@H](CCCNC(=N)N)C(=O)NC  relative potency (GH release; male rat, serum; subcutaneous, dose not given, 15 min; baseline: GHRH(1-29)NH2): 102
Cc1ccc([C@@H]2O[C@H](CO)[C@@H](O)[C@H](O)[C@H]2O)cc1Cc1ccc(-c2ccc(F)cc2)s1  serum ALT activity (rabbit, STZ-nicotinamide type 2 diabetes, serum; dose not given, 28 days): 84.2 ± 2.02 U/L
